{"data": "Assay results gathered from unrelated publications", "note": "Lines come from different studies, so protocols differ. ± marks the error that the study gave."}
{"SMILES": "c1cc([C@H]2CC[C@]3(CC2)OO[C@]2(O3)C3CC4CC(C3)CC2C4)ccc1OCCN1CCOCC1", "system": "human, plasma", "conditions": "oral, 800 mg, single dose, fed", "Tmax": "5 h"}
{"SMILES": "C#C[C@]1(O)CC[C@H]2[C@@H]3CCC4=CC(=O)CC[C@@H]4[C@H]3CC[C@@]21CC", "system": "HIV-positive women, control arm, serum", "conditions": "oral, dose not given, steady state, median", "Tmax": "1.5 h"}
{"SMILES": "O=c1[nH]c(Cc2ccccn2)nc2c1cnn2C1CCOCC1", "system": "healthy men, extensive metabolizers, plasma", "conditions": "oral, 350 mg single dose, tablet, median", "Tmax": "0.75 h"}
{"SMILES": "O[C@H]1CCCN[C@@H]1CCCn1cnc2c(Cl)c(Cl)ccc21", "system": "human, plasma", "conditions": "oral, 100 mg, single dose, healthy volunteers", "Tmax": "1.79 h"}
{"SMILES": "CNC(=O)c1ccc(-c2cnn3ccc(C(=O)N(C)c4ccc(Cl)c(C(=O)OC)c4)cc23)cc1", "system": "beagle dogs, both sexes, plasma", "conditions": "oral, 15 mg/kg/day, day 14", "Tmax": "0.917 h"}
{"SMILES": "CCCCCOc1ccc(-c2cc(-c3ccc(C(=O)N[C@H]4C[C@@H](O)[C@@H](O)NC(=O)[C@@H]5[C@@H](O)[C@@H](C)CN5C(=O)[C@H]([C@H](O)CC(N)=O)NC(=O)[C@H]([C@H](O)[C@@H](O)c5ccc(O)c(OS(=O)(=O)O)c5)NC(=O)[C@@H]5C[C@@H](O)CN5C(=O)[C@H]([C@@H](C)O)NC4=O)cc3)no2)cc1", "system": "young infants at least 1000 g, plasma", "conditions": "intravenous infusion, 7 mg/kg/day, day 4, median, 1 h infusion, repeat dosing", "Tmax": "1.1 h"}
{"SMILES": "Cc1cc(C(C#N)c2ccc(Cl)cc2)c(Cl)cc1NC(=O)c1cc(I)cc(I)c1O (stereo not drawn)", "assay": "HPLC, non-compartmental", "system": "Corriedale lambs, parasitized, plasma", "conditions": "subcutaneous, 5 mg/kg", "Tmax": "38.9 ± 10.1 h"}
{"SMILES": "CC[C@@]1(O)C(=O)OCc2c1cc1n(c2=O)Cc2cc3c(CN(C)C)c(O)ccc3nc2-1", "system": "human, plasma", "conditions": "oral, 8 mg, patients", "Tmax": "1.78 h"}
{"SMILES": "CC[C@H](C)[C@H](NC(=O)[C@@H](N)CCCNC(=N)N)C(=O)N[C@H](C(=O)N1CCC[C@H]1C(=O)N[C@@H](C)C(N)=O)C(C)C", "system": "healthy volunteers, both sexes, plasma", "conditions": "intravenous infusion, 1.5 mg/kg daily, day 7, multiple ascending dose", "Tmax": "0.075 ± 0.0167 h"}
{"note": "For quick reference, copied from above:"}
{"SMILES": "CC[C@@]1(O)C(=O)OCc2c1cc1n(c2=O)Cc2cc3c(CN(C)C)c(O)ccc3nc2-1", "system": "human, plasma", "conditions": "oral, 8 mg, patients", "Tmax": "1.78 h"}
